Measured values from different studies.
Protocols differ between the studies behind these lines. Values joined by “and” are separate records of one study, mostly repeats; a detail may differ. Numbers after ± are the reported error.
TDP1: Tyrosyl-DNA phosphodiesterase 1 (TDP1, Homo sapiens, UniProt Q9NUW8)
UniProt Q9NUW8, sequence (whole entry, looked up): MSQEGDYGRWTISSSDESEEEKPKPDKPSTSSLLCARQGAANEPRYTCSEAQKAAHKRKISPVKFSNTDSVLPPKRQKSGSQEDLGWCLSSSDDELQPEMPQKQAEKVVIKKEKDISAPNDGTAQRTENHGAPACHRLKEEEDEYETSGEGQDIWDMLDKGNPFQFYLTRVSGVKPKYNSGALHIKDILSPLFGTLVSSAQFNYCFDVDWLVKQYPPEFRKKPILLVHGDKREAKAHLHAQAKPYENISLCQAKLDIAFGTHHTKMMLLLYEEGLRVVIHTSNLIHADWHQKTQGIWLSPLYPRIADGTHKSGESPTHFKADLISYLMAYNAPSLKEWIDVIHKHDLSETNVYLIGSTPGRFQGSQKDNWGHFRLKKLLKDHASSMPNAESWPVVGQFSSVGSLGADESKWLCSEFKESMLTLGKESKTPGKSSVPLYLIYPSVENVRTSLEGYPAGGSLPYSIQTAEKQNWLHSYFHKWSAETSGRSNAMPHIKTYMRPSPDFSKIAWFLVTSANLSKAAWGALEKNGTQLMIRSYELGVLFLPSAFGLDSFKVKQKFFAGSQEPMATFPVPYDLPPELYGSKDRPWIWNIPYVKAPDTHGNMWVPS

Compound | tested on | test | system | conditions | how to read | quantity | value
Cc1cnc2nc1Nc1cccc(c1)COC/C=C/COCc1cc(ccc1OCCN1CCOCC1)N2 | – | – | BALB/c mice rhEPO-induced polycythemia | 100 mg/kg | – | reticulocytes | 11.2% and 11.4% and 11.9% and 10.4% and 9.57%
COc1cc2c(NC3CCN(C(C)C)CC3)cc(N3CCOCC3)nc2cc1OCCCN1CCCC1 | – | TMT proteomics, measured: YWHAZ | 5xFAD mice, hippocampus | dose not given | relative to: untreated 5xFAD mice | log2 fold change | -0.0344
CC[C@H](C)[C@@H](C(=O)N[C@@H](CC(C)C)C(=O)N[C@@H](CO)C(=O)N[C@@H](CO)C(=O)N[C@H](C(=O)N[C@@H](CCC(=O)O)C(=O)N[C@H](C(=O)NCC(=O)N[C@@H](CO)C(=O)N[C@@H](CO)C(=O)N[C@H](C(=O)N1C[C@H](O)C[C@H]1C(N)=O)[C@@H](C)O)C(C)C)[C@@H](C)O)N(C)C(=O)[C@H](C)NC(=O)CN(C)C(=O)[C@H](Cc1ccccc1)NC(=O)[C@H](CO)NC(=O)[C@H](CO)NC(=O)[C@H](CCCNC(=N)N)NC(=O)[C@@H](NC(=O)[C@H](CC(C)C)NC(=O)[C@H](Cc1ccccc1)NC(=O)[C@H](Cc1c[nH]cn1)NC(=O)[C@H](C)NC(=O)[C@H](CC(C)C)NC(=O)[C@H](CCCNC(=N)N)NC(=O)[C@H](CCC(=O)O)NC(=O)[C@@H](NC(=O)[C@H](C)NC(=O)[C@@H]1CSSC[C@H](NC(=O)[C@H](CCCNC(=N)N)NC(=O)CC[C@H](NC(=O)CCCCCCCCCCCCCCCCCCC(=O)O)C(=O)O)C(=O)NCC(=O)N[C@@H]([C@@H](C)O)C(=O)N[C@@H](C)C(=O)N[C@@H]([C@@H](C)O)C(=O)N1)[C@@H](C)O)[C@@H](C)O | – | – | male Sprague-Dawley rats | subcutaneous, 30 nmol/kg single dose, 24 h | relative to: vehicle | food intake | 70.9 ± 1.7%
COCC1CN(C2CCN(c3cc(OC)c(Nc4ncc(Br)c(Nc5ccc6c(c5P(C)(C)=O)OCCO6)n4)cc3C)CC2)C1 | – | RECIST 1.1 | advanced EGFR-mutant NSCLC patients | 90 mg once daily | – | objective response rate | 0%
CCC(=O)N[C@@H](C)C(=O)OCC(=O)N[C@@H](C)C(=O)O | – | – | water | pH 2, 65 °C | – | side-chain scission rate constant | 0.0074 h⁻¹
Cc1cccc(C)c1CNc1cc(C(=O)N2CCC2)cn2c(C)c(C)nc12 | – | histamine-stimulated acid secretion | pylorus-ligated rat | oral, 2 mg/kg, added: histamine | – | inhibition | 95%
CCCCCc1ccc(S(=O)(=O)N2CC2C(=O)OC)cc1 (stereo not drawn) | – | – | mouse, Lewis lung carcinoma | intraperitoneal, 5 mg/kg, 16 doses, day 12 | – | tumour volume | 281 mm3
CC(C)(C)NCC(SS(=O)(=O)O)c1ccccc1 (stereo not drawn) | – | – | mouse infected with Schistosoma mansoni | 400 mg/kg, day 42 post-infection dosing once, perfusion day 52 post-infection | – | spleen weight | 0.53 g and 0.85 g and 0.67 g
Cc1nn(Cc2ccccc2Cl)c(Cl)c1C=NOCc1ccc2nc(-c3ccccc3)c(Nc3ccc(C(=O)O)cc3)n2c1 (mixture of isomers) | TDP1 | enzyme activity, inhibitor | – | 100 µM, unpurified compound | – | inhibition | -17.1%
C#CCOc1ccc(-c2nncnn2)cc1 | – | – | 1,4-dioxane | 25 °C, added: TCO | – | second order rate constant | 72 ± 5 M⁻¹ s⁻¹
CN1CCC[C@]1(C)/C=C/S(=O)(=O)NC(=O)Nc1c2c(cc3c1CCC3)CCC2 | – | – | human, whole blood ex vivo | 100 mg twice daily, day 1, 3 h, multiple ascending dose, added: LPS and ATP | – | IL-18 inhibition | 88.9%
COCCOCCOCCNC(=O)Cc1cc(CC(=O)N[C@H]2C[C@H]3C(=O)Nc4cc(OCCOCCOCCOC)cc(n4)C(=O)N4CCC[C@H]4C(=O)Nc4cc(OCCOCCOCCOC)cc(n4)C(=O)N4CCC[C@H]4C(=O)Nc4cc(OCCOCCOCCOC)cc(n4)C(=O)N3C2)cc(CC(=O)N[C@H]2C[C@H]3C(=O)Nc4cc(OCCOCCOCCOC)cc(n4)C(=O)N4CCC[C@H]4C(=O)Nc4cc(OCCOCCOCCOC)cc(n4)C(=O)N4CCC[C@H]4C(=O)Nc4cc(OCCOCCOCCOC)cc(n4)C(=O)N3C2)c1 | – | anion binding, ITC | water | 298 K, added: sodium sulfate | – | TΔS | 5.927 ± 0.0478 kcal/mol
O=C1NC(=O)/C(=C/c2ccc(C=NOCc3ccc4nc(-c5ccccc5)c(Nc5ccc(C(=O)O)cc5)n4c3)cc2)N1 | TDP1 | enzyme activity, inhibitor | – | 100 µM, unpurified compound | – | inhibition | 103%
COc1ccc2c(c1)CN(C(=O)CCN1CCC(Cc3ccccc3)CC1)CCS2 | – | – | human | oral, dose not given | – | time to sinus rhythm conversion | 80 min
CC(C)C[C@H](NC(=O)CNC(=O)[C@H](CCC(N)=O)NC(=O)[C@H](CC(C)C)NC(=O)[C@H](CC(C)C)NC(=O)[C@H](CCCNC(=N)N)NC(=O)[C@H](CCC(N)=O)NC(=O)[C@H](CC(C)C)NC(=O)[C@H](CCCNC(=N)N)NC(=O)[C@H](C)NC(=O)CNC(=O)[C@H](CCC(=O)O)NC(=O)[C@H](CCCNC(=N)N)NC(=O)[C@H](CC(C)C)NC(=O)[C@H](CCCNC(=N)N)NC(=O)[C@H](CO)NC(=O)[C@H](CC(C)C)NC(=O)[C@H](CCC(=O)O)NC(=O)[C@H](CO)NC(=O)[C@@H](NC(=O)[C@H](Cc1ccccc1)NC(=O)[C@@H](NC(=O)CNC(=O)[C@H](CC(=O)O)NC(=O)C(C)(C)NC(=O)[C@@H](N)Cc1c[nH]cn1)[C@@H](C)O)[C@@H](C)O)C(=O)N[C@@H](CC(C)C)C(=O)N[C@@H](CCC(N)=O)C(=O)NCC(=O)N[C@@H](CC(C)C)C(=O)N[C@H](C(=O)NCC(=O)N[C@@H](CCCCNC(=O)COCCOCCNC(=O)COCCOCCNC(=O)CC[C@H](NC(=O)CCCCCCCCCCCCCCCCC(=O)O)C(=O)O)C(N)=O)C(C)C | – | cAMP reporter gene | CRE-Luc mouse, kidney homogenate | subcutaneous, 300 nmol/kg, 6 h | relative to: vehicle | luciferase induction | 6 fold
Oc1ccc(C2CC(Nc3ccc(-c4ccc(NC5=NOC(c6ccc(O)cc6)C5)cc4)cc3)=NO2)cc1 (stereo not drawn) | – | carrageenan paw oedema | albino rat | oral, 50 mg/kg, 3 h | – | inhibition | 24.3%
CC(=O)[O-].O.O.O.O.[Ni+2].[O-]c1ccc(Br)cc1C=NCCN1CCOCC1 | – | hydroxyl radical scavenging | – | 80 µM | – | inhibition | 15.8%
COc1ccc(C(=O)CCc2cc(C(CCc3ccc(O)cc3OC)c3ccc(O)cc3)c(O)cc2OC)cc1 (racemic) | – | – | human blood | 0.3 µM, added: A23187 | – | 15-HETE level | 223 ± 52 pg/mL
COc1ccc(C2CC(Nc3ccc(-c4ccc(NC5=NN(C(C)=O)C(c6ccc(OC)cc6)C5)cc4)cc3)=NN2C(C)=O)cc1 (stereo not drawn) | – | carrageenan paw oedema | albino rat | oral, 25 mg/kg, 3 h | – | inhibition | 30.3%
NC[C@@H](C(=O)Nc1ccc(-c2cn[nH]c2)cc1)c1ccccc1 | – | tonometry | Macaca cyclopis, ocular normotensive | ocular, 0.03%, 8 h | – | IOP | 17.8 mmHg
COc1cnc2cccc(N3CCc4c(cc(Cn5ccnc5)cc4-c4cn(C)nc4C(F)(F)F)C3=O)c2c1 | – | – | BALB/c nude mice, MV4-11 xenograft | intraperitoneal, 75 mg/kg, day 21 | – | tumour volume | 143 mm3 and 138 mm3 and 141 mm3 and 151 mm3 and 127 mm3 and 134 mm3
COc1cc(O)ccc1CCC(c1ccc(O)cc1)c1cc2c(c(C)c1O)OC(c1ccc(O)cc1)CC2 (mixture of isomers) | – | measured: 7-HDHA | human whole blood | 30 µM, added: Escherichia coli | – | amount | 33 ± 15 pg/mL blood
COC1CN([C@H]2CC[C@H]([C@@]3(C)Oc4c(Cl)cc(C(=O)NCc5c(SC)cc(C)[nH]c5=O)c(C)c4O3)CC2)C1 | – | RNA-seq, measured: CHST2 mouse homolog | mouse, HT-1376 xenograft, whole blood | dose not given | relative to: vehicle | log2 fold change | 0.504
O=C(OCc1cccc(O)c1O)c1ccc(O)c(CO)c1 | – | – | C57BL/6J mice, wild type | dose not given, day 14, aneurysm hypertension model, added: angiotensin II 0.8 mg/kg/d for 14 d | – | body weight | 31.2 ± 2 g
COc1ccc(NC(=O)c2ccc3[nH]c(-c4ccc(N(C)C)cc4)nc3c2)cn1 | – | – | Lewis lung carcinoma, mice, syngeneic graft, subcutaneous | intraperitoneal, 25 mg/kg daily, day 0 | – | tumour volume | 109 mm3 and 119 mm3 and 143 mm3 and 138 mm3
CC(C)=CCc1cc(C(=O)/C=C/c2ccc(O)cc2)c(O)cc1O | – | phase I metabolism, substrate | monkey liver microsomes | – | – | Vmax | 126 ± 14.7 pmol/min/mg
COc1ccc(C2CC(Nc3ccc(-c4ccc(NC5=NOC(c6ccc(OC)cc6)C5)cc4)cc3)=NO2)cc1 (stereo not drawn) | – | carrageenan paw oedema | albino rat | oral, 25 mg/kg, 3 h | – | inhibition | 27.8%

Some of these lines once more:
Compound | tested on | test | system | conditions | how to read | quantity | value
Cc1nn(Cc2ccccc2Cl)c(Cl)c1C=NOCc1ccc2nc(-c3ccccc3)c(Nc3ccc(C(=O)O)cc3)n2c1 (mixture of isomers) | TDP1 | enzyme activity, inhibitor | – | 100 µM, unpurified compound | – | inhibition | -17.1%
C#CCOc1ccc(-c2nncnn2)cc1 | – | – | 1,4-dioxane | 25 °C, added: TCO | – | second order rate constant | 72 ± 5 M⁻¹ s⁻¹
